Assay results pooled from the literature.
Numbered parts are unrelated; each lists some results of a single study. Changes are numbered by the printed parent chain.

Set 1
Target: CCNF, cyclin fold, Cln2 fusion (human)
Method: yeast growth competition, sequencing
Sample: yeast
Setting: strong parent motif
Reference: not given
Direction: higher = stronger binding
Quantity: normalised enrichment score
Starting sequence: RBL1 docking peptide (human); GSAKRRLFGEDPP
Variant = GSAHRRLFGEDPP [K4H]; value = 3.11
Variant = GSAKRRLFGWDPP [E10W]; value = 6.68
Variant = GSAKRRLFGEDLP [P12L]; value = 6.82
Variant = GSAKRRLVGEDPP [F8V]; value = 0.906
Variant = GSAKRRLFGEWPP [D11W]; value = 8.26
Variant = GSAKRRLFGADPP [E10A]; value = 6.44
Variant = GSAKRRLFGELPP [D11L]; value = 6.85
Variant = GSAKRRLFMEDPP [G9M]; value = 8.98
Variant = GSAKRRLFGESPP [D11S]; value = 6.36
Variant = GSARRRLFGEDPP [K4R]; value = 8.81
Variant = GSAKRRLSGEDPP [F8S]; value = -0.813
Variant = GSAKRRLFGEDEP [P12E]; value = 8.15
Variant = GSAKRRLFREDPP [G9R]; value = 7.88
Variant = GSALRRLFGEDPP [K4L]; value = 0.924
Variant = GSAQRRLFGEDPP [K4Q]; value = 6.13
Variant = GSAKRRLAGEDPP [F8A]; value = 0.408
Variant = GSAKTRLFGEDPP [R5T]; value = 0.887
Variant = GSAKRTLFGEDPP [R6T]; value = 2.7
Variant = VSAKRRLFGEDPP [G1V]; value = 8.87
Variant = GSAKRRLFQEDPP [G9Q]; value = 7.44
Variant = GSAKRRLFGEGPP [D11G]; value = 7.49
Variant = GSAKRRSFGEDPP [L7S]; value = 0.0939
Variant = GVAKRRLFGEDPP [S2V]; value = 5.55
Variant = GAAKRRLFGEDPP [S2A]; value = 5.47

Set 2
Target: ABI1, truncated, D143A, DHFR fusion (Arabidopsis thaliana)
Method: DHFR PCA, deep sequencing
Sample: yeast
Setting: methotrexate growth selection, single substitutions
Together with: (+)-ABA 0.39 µM
Reference: wild-type fitted maximum
Direction: higher = stronger binding
Quantity: relative binding score
Starting sequence: PYL1, truncated, DHFR fusion (Arabidopsis thaliana); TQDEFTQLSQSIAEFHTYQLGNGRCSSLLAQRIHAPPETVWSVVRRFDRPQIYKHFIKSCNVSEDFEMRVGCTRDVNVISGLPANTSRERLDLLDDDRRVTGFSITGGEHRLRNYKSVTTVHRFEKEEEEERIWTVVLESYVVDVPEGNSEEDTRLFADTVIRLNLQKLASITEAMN
Variant = Y18Q; value = -9.11%
Variant = L20M; value = 36.6%
Variant = I12H; value = -0.33%
Variant = D159K; value = -1.35%
Variant = N114F; value = -19.4%
Variant = E109N; value = 61.6%
Variant = I52D; value = 55.4%
Variant = Y141G; value = 1.55%
Variant = R132E; value = 74.8%
Variant = E139C; value = 24.5%
Variant = A175T; value = 35.2%
Variant = M68E; value = -9.58%
Variant = K168P; value = -5.91%
Variant = P50E; value = -10.4%
Variant = E64K; value = 57.1%
Variant = E151I; value = 36.6%
Variant = P37I; value = 9.2%

Set 3
Target: ATF1, bZIP domain (human)
Method: DHFR protein complementation
Sample: yeast
Setting: single substitutions, most at no-binding floor
Reference: wild-type JUN-FOS pair
Direction: higher = stronger binding
Quantity: binding fitness
Starting sequence: JUN, bZIP domain (human); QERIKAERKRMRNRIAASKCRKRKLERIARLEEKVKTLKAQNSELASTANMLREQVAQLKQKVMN; partner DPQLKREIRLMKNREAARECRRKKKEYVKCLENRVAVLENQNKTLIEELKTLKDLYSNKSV
Variant = K39Q; value = -1.4 natural log
Variant = I28K; value = -1.42 natural log
Variant = L52M; value = -1.62 natural log
Variant = A46P; value = -1.48 natural log
Variant = E54I; value = -1.56 natural log
Variant = E33M; value = -1.59 natural log
Variant = T37M; value = -1.09 natural log
Variant = Q55P; value = -1.5 natural log
Variant = K36R; value = -1.54 natural log
Variant = T48D; value = -1.41 natural log
Variant = E32G; value = -1.49 natural log
Variant = R53L; value = -1.53 natural log
Variant = L38R; value = -1.56 natural log
Variant = E33T; value = -1.49 natural log
Variant = M51S; value = -1.46 natural log
Variant = Q55S; value = -1.46 natural log
Variant = N42T; value = -1.55 natural log
Variant = R30T; value = -1.51 natural log
Variant = E44Q; value = -1.42 natural log
Variant = V35A; value = -1.48 natural log

Set 4
Target: RNA binding protein fox-1 homolog 2, RRM domain, GST-SBP tag (RBFOX2, Homo sapiens, UniProt O43251-10, residues 100-194)
Method: RNA Bind-n-Seq
Molecule type: RNA
Sample: in vitro
Tested at: 365 nM
Setting: natural RNA segment, single round, ends assumed
Reference: no-protein control
Direction: higher = stronger binding
Quantity: RBNS enrichment (R)
Constant ends, left off below: GGGAGUUCUACAGUCCGACGAUC … UGGAAUUCUCGGGUGCCAA
Target sequence (chain): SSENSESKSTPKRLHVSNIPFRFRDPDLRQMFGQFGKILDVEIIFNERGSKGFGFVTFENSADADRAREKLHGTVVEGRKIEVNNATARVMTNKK
Sequence = UGUUUGCACACAUUGGUAGACUGUUAUCAUUUGUGGUGGGAACCCAUGUAAAUAAGUAGACUGUAAAGAGAGACUAUCUUGCAUUAUGACUGUAUGAAUUUCUAAGUGCU; value = 0.646
Sequence = UCCAUGAUUCUGAAGCAUGCACACCUCUGAAGACCCCUGCAUGAAAAUAACCUCCAAGGACCCUCUGACCCCAUCGACCUGGGCCCUGCCCACACAACAGUCUGAGCAAG; value = 19.8
Sequence = UAAAAUAGGAUGGAGUGCUCUGUUGAUCAUUUGGGAGAUGUAGGUUACCUGAUUUGUGCCUUAGGAUGCAGCGUGAAGCAGAAGUCCAUAUUGCAAUUAUGAUUUUAGAA; value = 3.57
Sequence = CCCUAAUCUAUGGUCGGGAGACAGCAUCAGGGUUAAGAAGACUUUUUUUUUUUUUUUUUAAACUAGGAGAACCAAAUCUGGAAGCCAAAAUGUAGGCUUAGUUUGUGUGU; value = 1.49
Sequence = UCACACAGGUUCCCCUUGUACAUACAUGCACAUACACACCCAAACACACAUAGAGGACUCUGGAGCCGCAGUGGGACAGCCCUGCCUGCUUGUUCUUCUGAACUUGGGGA; value = 1.32
Sequence = GCUUAGAAUGCAGCCCUACCUGGAGAUAGUGCGGGCACCUGUGGCCAAGUGGAGCAGAGGUGGACAUGGGGUUGGAUUGUUUUGAUUAUUUAUAGUUACACAAGGACUUC; value = 8
Sequence = UAUGUAAAGGAGGGAAGGGAAGGCUUAAAAAGUCAUGUUCUUGCACCCUUUUUAAAUCACAGAAAUAAAGUUUCAGUUGUCUCAAGAGACAUUAAUCAGGAAUACAGAAU; value = 0.292
Sequence = CAUCCAGGCAGUCAUGUGUGAUGGGAGCACAUAGCAUCGGGAGAAGCAGAACUCCAUCCUCACCUCUAUUUUGAGCUUAGUGCUUUAUUUCAGUAUGAGGAAAAACAACA; value = 0.356
Sequence = CCUUCCAAGUUGUCUUGAAGAAUCCUUGCUGCUAACUCUGGAUCCUGCUUUUCCUAUAGUCAGAGGGCUCCAAGGUAGAACUCUCUAAGUCCCUCUCAAUGGCACUCUUU; value = 0.944
Sequence = GAUUGGCUCAGGUUUAAUACAUCUGUUAUUAUAUAAUCUAGCAAAAGUUGGAUUAUAGAUUAUAACGUAGAGUUGGUUUGUAGGGCCAAAUAAUCAGAGGACAUGCAAUA; value = 0.376
Sequence = ACACAGAAAAACAGAAACUGAGUGUGAGAGUUGUGAAAUACAAGGAAAUGCAGUAAAGCCAGGGAAUUUACAAUAACAUUUCCGUUUCCAUCAUUGAAUAAGUCUUAUUC; value = 0.542
Sequence = GAUCCUCAAGGACCUGUAAUUGUGUGGUAUUUAAAAUUAAAAUAACAUUAUUUUUAUUUUGACUUUUUUUCAAACAGUAAGAAUAAUAUAUCAGCAGCAUGUAUCUGCCA; value = 14

Set 5
Molecule: PhoQ, residues 284 288 289 292 302 303 AGGCYF
Method: Sort-seq
Refers to: YFP reporter
Sample: E. coli
Setting: PhoQ-PhoP variant library
Together with: 10 µM Mg2+
Reference: high Mg2+ state
Direction: higher = stronger signaling
Quantity: fold induction
target = PhoP, residues 12 14 15 18 19 TQAML (Escherichia coli, UniProt P23836); value = 20.2
target = PhoP, residues 12 14 15 18 19 NQCAL (Escherichia coli, UniProt P23836); value = 13.8
target = PhoP, residues 12 14 15 18 19 LHTVL (Escherichia coli, UniProt P23836); value = 17.7

Set 6
Target: Interferon regulatory factor 5, full length, phosphomimetic (IRF5, Homo sapiens, UniProt Q13568-2, residues 1-514, K96S/S451D/S453D/S456D/S462D)
Method: protein-binding microarray
Molecule type: double-stranded DNA, one strand shown
Sample: in vitro
Tested at: 250 nM
Setting: 60-bp whole probe
Together with: salmon DNA 0.4 mg/ml
Reference: random background probes
Direction: higher = stronger binding
Quantity: log fluorescence
Constant ends, left off below: GCCTAGCAC … GTCTTGATTCGCTTGACGCTGCTG
Sequence = GAGGGTCTCCTTTTCCTGACGTGCTAG; value = -0.532 z-score
Sequence = TTAGGACTGGCTATCGGTTAGTGCTAG; value = 4.24 z-score
Sequence = GACGGTCTCGGATTGGGGACGTGCTAG; value = -0.283 z-score
Sequence = TTAGGTATCGGGAATGGGTTAGTGCTA; value = 2.2 z-score
Sequence = TTGTATTTGTCCCTATTTAAGTGCTAG; value = 0.905 z-score
Sequence = GACGGACTGGACTATCGGGAGGTGCTA; value = 0.667 z-score
Sequence = TCAAATATATATATTGTACTGTGCTAG; value = 0.709 z-score
Sequence = TCACATTTACATTTTAGACTGTGCTAG; value = 0.927 z-score
Sequence = GACGGTTTCCGGTTTCGGGACGTGCTA; value = 4.38 z-score
Sequence = GCCCCTCTCCTCTCAGGAGCTGTGCTA; value = -0.76 z-score
Sequence = TTAGGCCTGGGTTTCGGTTAGTGCTAG; value = 7.94 z-score
Sequence = CTAGGTTTCCTTTCCCTTTAGTGCTAG; value = 1.68 z-score
Sequence = TCAGAACTGAGTCTCGATTAGTGCTAG; value = 0.596 z-score
Sequence = GACGATATCAGTACCGAGACGTGCTAG; value = 0.958 z-score
Sequence = TTAGGTACCGGTATCGGTTAGTGCTAG; value = 4.68 z-score
Sequence = GACGATCTCTGTTTCGAGACGTGCTAG; value = 2.4 z-score
Sequence = GACGATCTCAGTTTCGAGATGTGCTAG; value = 5.43 z-score
Sequence = TTAGATCTAAGACTGGATTAGTGCTAG; value = 0.00806 z-score
Sequence = GACGGACTGGACACTGGGGCCGTGCTA; value = -0.647 z-score
Sequence = TTAGGTCTCCGTTTCCTTTAGTGCTAG; value = 0.0693 z-score
Sequence = ATGCTGGTCACTCTCTGGGCGTGCTAG; value = -0.444 z-score
Sequence = GACGATTTCGGGTTTCGAAACGTGCTA; value = 6.12 z-score
Sequence = GACGATTTCGGGTATCCAGACGTGCTA; value = 4.06 z-score

Repeated from above (set 3):
Variant = E32G; value = -1.49 natural log
Variant = R30T; value = -1.51 natural log
Variant = Q55P; value = -1.5 natural log
Variant = M51S; value = -1.46 natural log
Variant = E33M; value = -1.59 natural log
Variant = E54I; value = -1.56 natural log
Variant = K39Q; value = -1.4 natural log
Variant = E44Q; value = -1.42 natural log
Variant = R53L; value = -1.53 natural log
Variant = Q55S; value = -1.46 natural log
Variant = V35A; value = -1.48 natural log
Variant = N42T; value = -1.55 natural log
Variant = E33T; value = -1.49 natural log
Variant = T37M; value = -1.09 natural log
